Measured values from different studies.
Each line is one published result; not all experiments were run side by side. Several values in a cell are separate wells, animals, samples, runs or records. ± gives the spread as reported.
Tln1: Tln1 309-405 (Mus musculus, UniProt P26039)
Chain of UniProt P26039 (whole entry, looked up): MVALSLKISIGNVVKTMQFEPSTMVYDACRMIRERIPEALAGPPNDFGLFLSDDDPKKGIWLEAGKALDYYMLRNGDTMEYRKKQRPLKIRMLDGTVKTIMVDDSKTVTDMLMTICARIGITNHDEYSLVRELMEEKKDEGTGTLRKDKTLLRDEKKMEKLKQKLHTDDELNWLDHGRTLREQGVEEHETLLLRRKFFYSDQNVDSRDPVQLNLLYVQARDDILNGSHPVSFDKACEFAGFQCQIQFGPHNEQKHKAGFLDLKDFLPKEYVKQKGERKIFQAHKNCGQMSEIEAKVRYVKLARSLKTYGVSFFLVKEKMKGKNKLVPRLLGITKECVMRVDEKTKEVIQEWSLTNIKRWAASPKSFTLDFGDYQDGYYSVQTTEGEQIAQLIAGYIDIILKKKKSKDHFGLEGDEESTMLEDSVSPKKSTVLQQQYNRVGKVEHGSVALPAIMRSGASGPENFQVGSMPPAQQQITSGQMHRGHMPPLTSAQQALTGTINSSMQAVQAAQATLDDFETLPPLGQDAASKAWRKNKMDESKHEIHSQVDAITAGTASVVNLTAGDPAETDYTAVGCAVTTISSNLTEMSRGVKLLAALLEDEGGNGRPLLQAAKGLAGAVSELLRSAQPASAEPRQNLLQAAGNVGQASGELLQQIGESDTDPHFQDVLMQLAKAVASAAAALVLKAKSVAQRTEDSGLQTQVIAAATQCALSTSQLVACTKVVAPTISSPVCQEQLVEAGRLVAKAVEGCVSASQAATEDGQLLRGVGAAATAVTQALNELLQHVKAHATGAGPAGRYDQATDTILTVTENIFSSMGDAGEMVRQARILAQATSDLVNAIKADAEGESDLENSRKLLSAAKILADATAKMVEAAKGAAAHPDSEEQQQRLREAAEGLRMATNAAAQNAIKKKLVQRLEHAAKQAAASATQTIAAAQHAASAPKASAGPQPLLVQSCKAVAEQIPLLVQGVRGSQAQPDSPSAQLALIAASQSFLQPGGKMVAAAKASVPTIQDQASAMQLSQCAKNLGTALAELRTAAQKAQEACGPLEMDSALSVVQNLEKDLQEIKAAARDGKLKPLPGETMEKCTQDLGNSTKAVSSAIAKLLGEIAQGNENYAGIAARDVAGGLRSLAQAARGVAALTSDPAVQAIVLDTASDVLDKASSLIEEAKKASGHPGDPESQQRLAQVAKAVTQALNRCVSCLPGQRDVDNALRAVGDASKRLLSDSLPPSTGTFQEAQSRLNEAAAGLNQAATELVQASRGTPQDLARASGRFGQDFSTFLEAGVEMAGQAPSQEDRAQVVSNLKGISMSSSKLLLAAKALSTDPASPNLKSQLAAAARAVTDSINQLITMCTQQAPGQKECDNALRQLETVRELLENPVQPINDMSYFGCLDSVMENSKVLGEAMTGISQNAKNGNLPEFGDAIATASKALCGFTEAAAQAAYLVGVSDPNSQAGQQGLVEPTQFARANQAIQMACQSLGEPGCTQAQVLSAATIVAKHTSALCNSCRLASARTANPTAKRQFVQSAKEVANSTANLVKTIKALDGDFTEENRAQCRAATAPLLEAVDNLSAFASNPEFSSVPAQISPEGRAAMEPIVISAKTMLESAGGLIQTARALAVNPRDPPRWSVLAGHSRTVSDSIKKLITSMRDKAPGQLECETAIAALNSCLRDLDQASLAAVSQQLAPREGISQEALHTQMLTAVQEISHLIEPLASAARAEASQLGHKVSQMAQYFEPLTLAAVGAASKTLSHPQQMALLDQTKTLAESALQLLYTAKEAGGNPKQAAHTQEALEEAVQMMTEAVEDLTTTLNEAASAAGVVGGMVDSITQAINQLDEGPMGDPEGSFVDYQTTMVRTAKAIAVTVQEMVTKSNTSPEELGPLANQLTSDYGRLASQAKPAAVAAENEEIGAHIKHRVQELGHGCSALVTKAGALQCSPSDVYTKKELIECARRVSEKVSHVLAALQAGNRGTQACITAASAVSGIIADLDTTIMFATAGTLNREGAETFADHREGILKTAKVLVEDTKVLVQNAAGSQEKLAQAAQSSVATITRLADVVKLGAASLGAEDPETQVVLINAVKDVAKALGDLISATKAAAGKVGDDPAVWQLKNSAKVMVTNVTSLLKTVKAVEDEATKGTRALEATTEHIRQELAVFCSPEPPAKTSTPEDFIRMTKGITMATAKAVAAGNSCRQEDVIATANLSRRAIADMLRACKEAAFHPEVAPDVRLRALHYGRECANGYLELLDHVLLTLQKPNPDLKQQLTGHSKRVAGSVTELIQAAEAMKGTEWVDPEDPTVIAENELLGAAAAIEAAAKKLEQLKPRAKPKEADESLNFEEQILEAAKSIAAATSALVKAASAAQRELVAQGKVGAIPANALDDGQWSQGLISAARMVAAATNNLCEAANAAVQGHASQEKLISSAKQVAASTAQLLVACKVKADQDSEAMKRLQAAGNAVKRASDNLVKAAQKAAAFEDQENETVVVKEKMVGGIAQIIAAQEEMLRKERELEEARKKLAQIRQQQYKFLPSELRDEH
CDC48A: CDC48A 1-463 (Arabidopsis thaliana, UniProt P54609)
Chain of UniProt P54609 (whole entry, looked up): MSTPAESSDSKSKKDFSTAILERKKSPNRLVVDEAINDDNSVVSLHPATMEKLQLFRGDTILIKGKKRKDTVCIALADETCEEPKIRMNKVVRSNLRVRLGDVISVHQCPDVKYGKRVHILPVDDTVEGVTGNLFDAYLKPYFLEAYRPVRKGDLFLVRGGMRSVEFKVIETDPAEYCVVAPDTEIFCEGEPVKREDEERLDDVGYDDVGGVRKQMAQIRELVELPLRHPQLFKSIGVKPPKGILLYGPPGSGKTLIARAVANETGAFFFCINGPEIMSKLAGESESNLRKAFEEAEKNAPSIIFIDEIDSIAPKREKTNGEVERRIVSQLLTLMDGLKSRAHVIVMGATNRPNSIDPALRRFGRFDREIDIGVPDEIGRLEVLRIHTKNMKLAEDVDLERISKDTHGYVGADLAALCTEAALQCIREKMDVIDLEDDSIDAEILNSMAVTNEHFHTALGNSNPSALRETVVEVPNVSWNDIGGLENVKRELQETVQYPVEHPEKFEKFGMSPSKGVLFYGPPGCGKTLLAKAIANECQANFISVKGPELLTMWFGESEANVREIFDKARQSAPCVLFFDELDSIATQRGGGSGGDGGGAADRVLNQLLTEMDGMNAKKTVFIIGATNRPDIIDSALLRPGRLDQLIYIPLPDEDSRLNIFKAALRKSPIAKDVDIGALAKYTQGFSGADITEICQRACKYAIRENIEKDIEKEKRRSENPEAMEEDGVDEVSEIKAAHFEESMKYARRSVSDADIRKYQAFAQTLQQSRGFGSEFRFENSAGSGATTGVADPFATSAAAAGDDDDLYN
B1: LILRB5 24-458 (Homo sapiens, UniProt O75023); sequence looked up; chain GTLPKPTLWAEPASVIARGKPVTLWCQGPLETEEYRLDKEGLPWARKRQNPLEPGAKAKFHIPSTVYDSAGRYRCYYETPAGWSEPSDPLELVATGFYAEPTLLALPSPVVASGGNVTLQCDTLDGLLTFVLVEEEQKLPRTLYSQKLPKGPSQALFPVGPVTPSCRWRFRCYYYYRKNPQVWSNPSDLLEILVPGVSRKPSLLIPQGSVVARGGSLTLQCRSDVGYDIFVLYKEGEHDLVQGSGQQPQAGLSQANFTLGPVSRSHGGQYRCYGAHNLSPRWSAPSDPLDILIAGLIPDIPALSVQPGPKVASGENVTLLCQSWHQIDTFFLTKEGAAHPPLCLKSKYQSYRHQAEFSMSPVTSAQGGTYRCYSAIRSYPYLLSSPSYPQELVVSGPSGDPSLSPTGSTPTPGPEDQPLTPTGLDPQSGLGRHLG
B2: IGFBP7 30-159 (Homo sapiens, UniProt Q16270); chain DTCGPCEPASCPPLPPLGCLLGETRDACGCCPMCARGEGEPCGGGGAGRGYCAPGMECVKSRKRRKGKAGAAAGGPGVSGVCVCKSRYPVCGSDGTTYPSGCQLRAASQRAESRGEKAITQVSKGTCEQG
B3: ANGPT1 283-498 (Homo sapiens, UniProt Q15389); chain FRDCADVYQAGFNKSGIYTIYINNMPEPKKVFCNMDVNGGGWTVIQHREDGSLDFQRGWKEYKMGFGNPSGEYWLGNEFIFAITSQRQYMLRIELMDWEGNRAYSQYDRFHIGNEKQNYRLYLKGHTGTAGKQSSLILHGADFSTKDADNDNCMCKCALMLTGGWWFDACGPSNLNGMFYTAGQNHGKLNGIKWHYFKGPSYSLRSTTMMIRPLDF
B4: CFH domains 1108-1231 R1182S (Homo sapiens, UniProt P08603); sequence looked up; chain KCGPPPPIDNGDITSFPLSVYAPASSVEYQCQNLYQLEGNKRITCRNGQWSEPPKCLHPCVISREIMENYNIALSWTAKQKLYSRTGESVEFVCKRGYRLSSRSHTLRTTCWDGKLEYPTCAKR
B5: TEPSIN L438S/W444S (Homo sapiens, UniProt Q96N21); chain MAAAPPLRDRLSFLHRLPILLKGTSDDDVPCPGYLFEEIAKISHESPGSSQCLLEYLLSRLHSSSGHGKLKVLKILLYLCSHGSSFFLLILKRNSAFIQEAAAFAGPPDPLHGNSLYQKVRAAAQDLGSTLFSDTVLPLAPSQPLGTPPATGMGSQARPHSTLQGFGYSKEHGRTAVRHQPGQAGGGWDELDSGPSSQNSSQNSDLSRVSDSGSHSGSDSHSGASREPGDLAERVEVVALSDCQQELSLVRTVTRGPRAFLSREEAQHFIKACGLLNCEAVLQLLTCHLRGTSECTQLRALCAIASLGSSDLLPQEHILLRTRPWLQELSMGSPGPVTNKATKILRHFEASCGQLSPARGTSAEPGPTAALPGPSDLLTDAVPLPGSQVFLQPLSSTPVSSRSPAPSSGMPSSPVPTPPPDASPIPAPGDPSEAEARSAESRRSRPERIPGGTDSPKRGPSSCAWSRDSLFAGMELVACPRLVGAGAAAGESCPDAPRAPQTSSQRTAAKEPPGSEPSAFAFLNA
B6: Cacna1c 1647-1777 (Mus musculus, UniProt Q01815); sequence looked up; chain NALSLQAGLRTLHDIGPEIRRAISGDLTAEEELDKAMKEAVSAASEDDIFRRAGGLFGNHVTYYQSDSRGNFPQTFATQRPLHINKTGNNQADTESPSHEKLVDSTFTPSSYSSTGSNANINNANNTALGR
B7: NR3C1 1-420 (Homo sapiens, UniProt P04150); pyrene label; chain MDSKESLTPGREENPSSVLAQERGDVMDFYKTLRGGATVKVSASSPSLAVASQSDSKQRRLLVDFPKGSVSNAQQPDLSKAVSLSMGLYMGETETKVMGNDLGFPQQGQISLSSGETDLKLLEESIANLNRSTSVPENPKSSASTAVSAAPTEKEFPKTHSDVSSEQQHLKGQTGTNGGNVKLYTTDQSTFDILQDLEFSSGSPGKETNESPWRSDLLIDENCLLSPLAGEDDSFLLEGNSNEDCKPLILPDTKPKIKDNGDLVLSSPSNVTLPQVKTEKEDFIELCTPGVIKQEKLGTVYCQASFPGANIIGNKMSAISVHGVSTSGGQMYHYDMNTASLSQQQDQKPIFNVIPPIPVGSENWNRCQGSGDDNLTSLGTLNFPGRTVFSNGYSSPSMRPDVSSPPSSSSTATTGPPPKL
B8: CFH domains 1108-1231 L1189R (Homo sapiens, UniProt P08603); sequence looked up; chain KCGPPPPIDNGDITSFPLSVYAPASSVEYQCQNLYQLEGNKRITCRNGQWSEPPKCLHPCVISREIMENYNIALRWTAKQKRYSRTGESVEFVCKRGYRLSSRSHTLRTTCWDGKLEYPTCAKR
B9: PLXND1 RBD 1553-1678 (Homo sapiens, UniProt Q9Y4D7); sequence looked up; chain AKPRNLNVSFQGCGMDSLSVRAMDTDTLTQVKEKILEAFCKNVPYSQWPRAEDVDLEWFASSTQSYILRDLDDTSVVEDGRKKLNTLAHYKIPEGASLAMSLIDKKDNTLGRVKDLDTEKYFHLVL
B10: PUX3 (Arabidopsis thaliana, UniProt Q9SUG6); chain MSSKDKKLSKPTSGRTGGIRTLSDLNRRSEPDSDSDSDGPQEYFTGGEKSGMLVQDPTKEPKHDDVDEIFNQARQLGAVEGPLEHPSSSRSFTGTGRLLSGESVPTALQQPEPVIHNIIFWSNGFTVDDGPLRKLDDPENASFLDSIRKSECPKELEPVDKRAPVHVNLMRRDEKCPEKEKLKVSFQGVGRTLGGASSSTASSQSNLTDVAAVQSPLQSLVVDETLPSTSIQLRLADGTRMVAKFNNHHTVNDIRGFIEFSRPGNPNNYTLQVMGFPPKPLTDPSQTIEQAGLASSVVIQKF
B11: PUX4 (Arabidopsis thaliana, UniProt Q8RWU7); chain MSSKDKKPSKPSSSRGGIRTLSDLNRRSGPDSDSDSDGPQEYYTGGEKSGMLVQDPSKKDDVDEIFNQARQLGAVEGPLEPPPSSRSFTGTGRLLSGENVPTGNQQPEPVVHNIVFWSNGFTIDDGPLRKLDDPENASFLESIRKSECPKELEPADRRAPVHVNLMRKEEKCPERQKRRVSFQGVGRTLGGSNEGSGSSSPVAPDSAPIPIQTEPAPSQSLVIDETVPTTSIQLRLADGTRLVAKFNHHHTVNDIRGFIDSSRPGASLNYQLQTMGFPPKPLTDLTQTIEEAGLANSVVLQKF
B12: BRAF kinase 448-723 K723G/P722S/S720E/L716E/S713E/Q709R/L706S/A688R/Y673S/R662E/K630S/V600E/L588N/Q562R (Homo sapiens, UniProt P15056); sequence looked up; chain DDWEIPDGQITVGQRIGSGSFGTVYKGKWHGDVAVKMLNVTAPTPQQLQAFKNEVGVLRKTRHVNILLFMGYSTKPQLAIVTQWCEGSSLYHHLHASETKFEMKKLIDIARQTARGMDYLHAKSIIHRDLKSNNIFLHEDNTVKIGDFGLATEKSRWSGSHQFEQLSGSILWMAPEVIRMQDSNPYSFQSDVYAFGIVLYELMTGQLPYSNINNEDQIIFMVGRGSLSPDLSKVRSNCPKRMKRLMAECLKKKRDERPSFPRILAEIEELARELSG
Chain of UniProt P01024 (whole entry, looked up): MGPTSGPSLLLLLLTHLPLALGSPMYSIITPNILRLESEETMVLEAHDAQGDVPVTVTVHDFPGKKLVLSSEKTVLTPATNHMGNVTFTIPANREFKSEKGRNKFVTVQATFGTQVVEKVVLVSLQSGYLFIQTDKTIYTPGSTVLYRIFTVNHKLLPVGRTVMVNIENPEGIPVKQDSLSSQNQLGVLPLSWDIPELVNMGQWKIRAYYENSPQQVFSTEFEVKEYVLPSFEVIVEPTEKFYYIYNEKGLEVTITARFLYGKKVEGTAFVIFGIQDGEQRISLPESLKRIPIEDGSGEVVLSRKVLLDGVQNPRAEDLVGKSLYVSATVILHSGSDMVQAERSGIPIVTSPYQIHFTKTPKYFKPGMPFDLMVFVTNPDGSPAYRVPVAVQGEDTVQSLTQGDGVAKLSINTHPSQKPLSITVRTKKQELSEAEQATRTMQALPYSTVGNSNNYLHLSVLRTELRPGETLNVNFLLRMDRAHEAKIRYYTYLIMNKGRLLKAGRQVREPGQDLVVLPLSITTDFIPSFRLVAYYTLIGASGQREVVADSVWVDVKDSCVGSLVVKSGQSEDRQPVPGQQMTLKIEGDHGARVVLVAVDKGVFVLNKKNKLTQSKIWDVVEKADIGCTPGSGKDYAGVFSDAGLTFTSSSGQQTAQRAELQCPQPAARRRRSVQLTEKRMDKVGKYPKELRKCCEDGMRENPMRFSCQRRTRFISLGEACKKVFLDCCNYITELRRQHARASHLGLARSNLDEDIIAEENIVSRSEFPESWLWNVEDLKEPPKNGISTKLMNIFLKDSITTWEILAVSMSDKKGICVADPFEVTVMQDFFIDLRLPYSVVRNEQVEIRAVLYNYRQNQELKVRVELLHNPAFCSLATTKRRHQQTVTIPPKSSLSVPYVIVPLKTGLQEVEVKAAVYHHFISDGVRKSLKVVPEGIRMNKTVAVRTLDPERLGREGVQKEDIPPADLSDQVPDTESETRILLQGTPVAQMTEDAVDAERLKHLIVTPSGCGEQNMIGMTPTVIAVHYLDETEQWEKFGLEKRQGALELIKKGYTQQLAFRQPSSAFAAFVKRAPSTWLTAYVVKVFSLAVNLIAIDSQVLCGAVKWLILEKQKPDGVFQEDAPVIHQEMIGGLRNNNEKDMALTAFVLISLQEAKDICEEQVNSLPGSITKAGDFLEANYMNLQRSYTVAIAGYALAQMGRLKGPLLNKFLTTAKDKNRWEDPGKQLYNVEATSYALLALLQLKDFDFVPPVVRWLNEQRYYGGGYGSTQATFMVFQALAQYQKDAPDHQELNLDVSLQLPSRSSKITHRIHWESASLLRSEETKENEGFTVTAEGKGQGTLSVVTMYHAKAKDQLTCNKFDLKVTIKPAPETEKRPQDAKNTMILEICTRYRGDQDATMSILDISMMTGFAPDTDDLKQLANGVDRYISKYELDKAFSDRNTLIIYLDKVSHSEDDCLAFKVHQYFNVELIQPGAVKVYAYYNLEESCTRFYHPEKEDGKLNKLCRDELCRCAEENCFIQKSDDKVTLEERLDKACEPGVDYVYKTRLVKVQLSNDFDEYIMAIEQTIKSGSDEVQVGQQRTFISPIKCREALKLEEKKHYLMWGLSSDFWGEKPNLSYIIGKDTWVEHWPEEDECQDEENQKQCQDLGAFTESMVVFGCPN

Substance	partner	test	test system	conditions	Kd
GCVRLHESCLGQQVPCCDPAATCYCEGRGDRDMKCYCR (designed binder)	ITGAV/ITGB3 U87MG cells (Homo sapiens)	flow cytometry	designed binder, U87MG		0.0083 µM
B1 (LILRB5 24-458)	EPHB1 18-540 (Homo sapiens, UniProt P54762)	BLI	Fc fusion		0.061 µM
petF ferredoxin (Synechocystis sp. PCC 6803, UniProt P27320)	narB C148A (Synechococcus sp. PCC 7942)	UV-visible difference titration			25.4 ± 14.6 µM
PCSK9 (Homo sapiens, UniProt Q8NBP7)	evolocumab IgG, PBS-stressed 14 d, Asn deamidation, heavy chain CDR2 Asn55 and Fc	SPR			0.0013 µM
B2 (IGFBP7 30-159)	CD93 25-347 (Homo sapiens, UniProt Q9NPY3)	ITC		25 °C	4.26 µM
B3 (ANGPT1 283-498)	TEK 23-748 (Homo sapiens, UniProt Q02763)	SPR			23.8 µM
KISPPTPKPRPPRPLPVAPGS (PIK3R1 proline-rich region 1 (Homo sapiens))	FYN 72-142 (Homo sapiens, UniProt P06241)	ITC	peptide		41.3 ± 2.7 µM
B4 (CFH domains 1108-1231 R1182S)	C3 C3dg 955-1303 (Homo sapiens, UniProt P01024)	SPR			8.1 ± 0.2 µM
SCN2A fragment Q1913A (Homo sapiens) (sequence not shown)	CALM1 (Homo sapiens, UniProt P0DP23)	fluorescence titration		pH 7.4, 22 °C, with: calcium	0.075 µM
YSSDFLTPEFVKFSMDLTNTEI (NR4A2 30-51 (Homo sapiens, UniProt P43354); sequence looked up)	Ncoa1 260-369 (Mus musculus, UniProt P70365)	NMR titration	peptide		10.5 ± 3.6 µM
FIYWPWADLGVPDCG (macrocyclic peptide; cyclic)	KRAS fragment (Homo sapiens)	SPR	peptide		> 10 µM
PALLD Ig3-Ig4 tandem del21 linker residues	ACTA1 F-actin (Oryctolagus cuniculus, UniProt P68135)	co-sedimentation			15.7 ± 3.4 µM
FNIVGTTYPINC (GABRA3 peptide 368-379)	Gphn (Rattus norvegicus, UniProt Q03555)	competition titration, magnetic tweezers	peptide		39.4 µM
FGB dimer (Homo sapiens)	CDH2 EC3 217-332 (Homo sapiens)	SPR		Langmuir fit, with: CaCl2	0.0264 µM
histone H3 peptide fragment, K14 acetyl-lysine	DPF2 270-391 (Homo sapiens, UniProt Q92785)	ITC			0.65 µM
B5 (TEPSIN L438S/W444S)	MAP1LC3B fragment (Homo sapiens)	BLI			5.72 µM and 6.13 µM and 6.95 µM and 9.01 µM

Substance	partner	test	test system	conditions	Kd
B6 (Cacna1c 1647-1777)	Jph2 1-440 S165Y (Mus musculus, UniProt Q9ET78)	ITC			19.2 µM
KLLITIHDRKEFAKFEKERARAKWDTANNPLYKEATSTFTNITYRGT (ITGB3 742-788 E732K (Homo sapiens, UniProt P05106); sequence looked up)	Tln1	NMR titration			538 µM
B7 (NR3C1 1-420)	TSG101 229-304 coiled coil, pyrene label (Homo sapiens, UniProt Q99816)	fluorescence anisotropy			21 µM
B8 (CFH domains 1108-1231 L1189R)	C3 996-1303 (Homo sapiens, UniProt P01024)	SPR			2.4 ± 0.06 µM
KLLMIIHDRREFAKFEKEKMNAKWDTQENPIYKSAINNFKNPNYGRKAGL (ITGB1 752-801 P786A (Homo sapiens, UniProt P05556-5); sequence looked up)	Tln1	NMR titration			269 µM
B9 (PLXND1 RBD 1553-1678)	RND2 1-227 (Homo sapiens, UniProt P52198)	SPR			6.72 ± 0.73 µM
B10 (PUX3)	CDC48A	BLI		25 °C	0.83 ± 0.1 µM
F9 heavy and light chains, activated (UniProt P00740)	F8 activated, A1/A2/A3-C1-C2 R562Q (Homo sapiens)	FXa generation, factor Xa generation rate		with: FX	0.001 µM
WHRSYYTWN (TR3 peptide)	CD274 19-238 (Homo sapiens, UniProt Q9NZQ7)	SPR	peptide		0.298 µM
B11 (PUX4)	CDC48A	BLI		25 °C	0.56 ± 0.02 µM
GRGRGRGRGRGRGRGRGRGRGRGRGRGRGRGRGRGRGRGR ((GR)20 20 repeats; TAMRA label N-terminal)	FUS 1-371 (Homo sapiens, UniProt P35637)	fluorescence polarisation	peptide		0.0614 ± 0.0136 µM
B12	MAP2K1 (Homo sapiens, UniProt Q02750)	BLI			0.17 ± 0.0137 µM
entB, ketone isostere salicyl on PCP (Escherichia coli, UniProt P0ADI4)	EntF holo, phosphopantetheine (Escherichia coli, UniProt P11454)	SPR			0.069 µM
EPHA2 fragment, auto-phosphorylated (Homo sapiens)	EFNA1 (Homo sapiens, UniProt P20827)	BLI		apparent	0.34 µM
LPDTDDRHRIEEKRKRTYETFKSIMKKSPANGP (Rela 289-321 F318A (Mus musculus, UniProt Q04207); sequence looked up)	NFKBIA 67-206 (Homo sapiens, UniProt P25963)	ITC	peptide		2.7 ± 0.7 µM
GEPPPGKPADDAGLV (BPC-157 (Homo sapiens))	FBXO22 (Homo sapiens, UniProt Q8NEZ5)	SPR	peptide		0.1 µM

For quick reference, copied from above:
Substance	partner	test	test system	conditions	Kd
B4 (CFH domains 1108-1231 R1182S)	C3 C3dg 955-1303 (Homo sapiens, UniProt P01024)	SPR			8.1 ± 0.2 µM
SCN2A fragment Q1913A (Homo sapiens) (sequence not shown)	CALM1 (Homo sapiens, UniProt P0DP23)	fluorescence titration		pH 7.4, 22 °C, with: calcium	0.075 µM
YSSDFLTPEFVKFSMDLTNTEI (NR4A2 30-51 (Homo sapiens, UniProt P43354); sequence looked up)	Ncoa1 260-369 (Mus musculus, UniProt P70365)	NMR titration	peptide		10.5 ± 3.6 µM
FIYWPWADLGVPDCG (macrocyclic peptide; cyclic)	KRAS fragment (Homo sapiens)	SPR	peptide		> 10 µM
PALLD Ig3-Ig4 tandem del21 linker residues	ACTA1 F-actin (Oryctolagus cuniculus, UniProt P68135)	co-sedimentation			15.7 ± 3.4 µM
